{"data": "Measurements of several laboratories", "UCHL1": "Ubiquitin carboxyl-terminal hydrolase isozyme L1 (UCHL1, Homo sapiens, UniProt P09936)", "T1": "RNA aptamer, 5'-triphosphate; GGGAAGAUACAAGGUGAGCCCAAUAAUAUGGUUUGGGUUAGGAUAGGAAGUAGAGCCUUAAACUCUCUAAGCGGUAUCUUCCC", "T2": "RNA aptamer; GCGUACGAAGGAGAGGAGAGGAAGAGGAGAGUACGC", "T3": "RNA aptamer; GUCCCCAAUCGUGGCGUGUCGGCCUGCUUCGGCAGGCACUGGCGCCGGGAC", "T4": "RNA aptamer (Homo sapiens); chain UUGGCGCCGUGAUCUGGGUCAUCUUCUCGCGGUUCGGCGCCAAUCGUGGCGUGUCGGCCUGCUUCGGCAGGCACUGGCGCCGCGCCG; chain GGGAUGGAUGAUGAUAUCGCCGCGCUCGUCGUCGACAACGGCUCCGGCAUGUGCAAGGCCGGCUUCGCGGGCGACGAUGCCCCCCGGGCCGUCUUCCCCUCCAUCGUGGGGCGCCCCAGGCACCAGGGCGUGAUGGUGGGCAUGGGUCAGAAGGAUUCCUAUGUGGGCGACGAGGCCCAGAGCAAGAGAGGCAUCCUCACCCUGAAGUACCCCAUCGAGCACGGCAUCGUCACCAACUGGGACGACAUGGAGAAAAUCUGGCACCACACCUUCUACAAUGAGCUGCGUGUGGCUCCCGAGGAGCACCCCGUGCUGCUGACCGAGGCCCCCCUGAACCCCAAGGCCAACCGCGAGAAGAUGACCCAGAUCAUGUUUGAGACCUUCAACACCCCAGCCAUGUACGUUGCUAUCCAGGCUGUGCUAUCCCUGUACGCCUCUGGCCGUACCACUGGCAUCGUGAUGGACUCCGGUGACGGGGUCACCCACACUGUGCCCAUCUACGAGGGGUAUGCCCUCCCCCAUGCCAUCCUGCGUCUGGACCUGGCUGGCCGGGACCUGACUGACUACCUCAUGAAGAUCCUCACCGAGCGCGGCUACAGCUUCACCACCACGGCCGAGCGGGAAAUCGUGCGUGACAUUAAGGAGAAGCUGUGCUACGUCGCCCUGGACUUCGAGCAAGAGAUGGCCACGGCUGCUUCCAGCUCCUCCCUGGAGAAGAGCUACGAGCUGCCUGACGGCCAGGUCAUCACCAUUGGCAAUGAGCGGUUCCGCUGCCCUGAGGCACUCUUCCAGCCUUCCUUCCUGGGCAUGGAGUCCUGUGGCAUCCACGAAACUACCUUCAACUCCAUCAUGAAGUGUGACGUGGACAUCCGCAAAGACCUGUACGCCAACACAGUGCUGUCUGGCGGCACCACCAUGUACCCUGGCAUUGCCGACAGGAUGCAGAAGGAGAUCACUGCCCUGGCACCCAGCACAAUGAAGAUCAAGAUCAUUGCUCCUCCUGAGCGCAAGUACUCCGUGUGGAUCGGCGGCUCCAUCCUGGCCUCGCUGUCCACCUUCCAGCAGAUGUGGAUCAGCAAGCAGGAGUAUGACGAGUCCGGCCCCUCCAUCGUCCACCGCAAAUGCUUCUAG", "T5": "RNA aptamer del49, 5'-triphosphate, 2',3'-cyclic phosphate; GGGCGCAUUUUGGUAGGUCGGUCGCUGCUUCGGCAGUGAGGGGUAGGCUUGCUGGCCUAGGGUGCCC", "T6": "RNA aptamer, 3'-5' linkages; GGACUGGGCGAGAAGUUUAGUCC", "T7": "RNA aptamer circularly permuted; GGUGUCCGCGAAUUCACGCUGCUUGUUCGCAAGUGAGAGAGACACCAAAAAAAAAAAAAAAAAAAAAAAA", "T8": "RNA aptamer; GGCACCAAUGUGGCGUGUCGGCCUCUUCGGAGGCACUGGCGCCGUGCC", "T9": "RNA aptamer; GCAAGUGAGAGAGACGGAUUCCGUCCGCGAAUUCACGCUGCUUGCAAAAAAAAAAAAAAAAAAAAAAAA", "T10": "RNA aptamer; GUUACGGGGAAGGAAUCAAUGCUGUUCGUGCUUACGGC", "T11": "RNA aptamer, triplex fused, Baby Spinach; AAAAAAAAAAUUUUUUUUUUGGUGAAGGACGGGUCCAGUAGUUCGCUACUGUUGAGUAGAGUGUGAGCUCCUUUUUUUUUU", "note": "Compare with care: the assays were run in different laboratories.", "UniProt P09936, sequence (whole entry, unmodified, looked up)": "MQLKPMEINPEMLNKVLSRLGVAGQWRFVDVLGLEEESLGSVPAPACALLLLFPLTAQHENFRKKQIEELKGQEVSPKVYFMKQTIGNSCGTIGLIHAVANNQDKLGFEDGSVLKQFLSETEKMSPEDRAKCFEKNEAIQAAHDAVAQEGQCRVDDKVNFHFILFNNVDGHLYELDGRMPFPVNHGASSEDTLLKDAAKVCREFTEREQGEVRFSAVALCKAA"}
{"SMILES": "CC1=N/C(=C\\c2cc(F)c(O)c(F)c2)C(=O)N1CC(F)(F)F", "target": "T1, RNA aptamer, 5'-triphosphate", "assay": "X-ray crystallography", "endpoint": "binding", "value": "binds"}
{"SMILES": "CN1C=CC(=Cc2sc3ccccc3[n+]2CC(=O)NCCOCCOCCOCCNC(=O)CCCC[C@@H]2SC[C@@H]3NC(=O)N[C@@H]32)c2ccccc21", "target": "T2, RNA aptamer", "assay": "fluorescence titration", "conditions": "apparent", "endpoint": "Kd", "value": "0.85 nM"}
{"SMILES": "CN(CCO)c1cc2sc(/C=C(\\C#N)c3ccc(C#N)cc3)cc2s1", "target": "T3, RNA aptamer", "assay": "fluorescence turn-on", "endpoint": "binding", "value": "binds"}
{"SMILES": "O=Cc1c[nH]c2ccc(S(=O)(=O)N3CCCCC3)cc12", "target": "UCHL1", "assay": "covalent, intact protein LC-MS", "conditions": "12.5 µM", "endpoint": "labelling", "value": "24.3%"}
{"SMILES": "CN(CCO)c1cc2sc(/C=C(\\C#N)c3ccc(C#N)cc3)cc2s1", "target": "T4, RNA aptamer (Homo sapiens)", "assay": "fluorescence activation", "endpoint": "binding", "value": "binds"}
{"SMILES": "Nc1nc2c(ncn2[C@@H]2O[C@H](COP(=O)(O)OP(=O)(O)OP(=O)(O)O)[C@@H](O)[C@H]2O)c(=O)[nH]1", "target": "T5, RNA aptamer del49, 5'-triphosphate, 2',3'-cyclic phosphate", "assay": "ITC", "endpoint": "Kd", "value": "9.1 nM"}
{"SMILES": "NCC[C@H](O)C(=O)N[C@@H]1C[C@H](N)[C@@H](O[C@H]2O[C@H](CN)[C@@H](O)[C@H](O)[C@H]2O)[C@H](O)[C@H]1O[C@H]1O[C@H](CO)[C@@H](O)[C@H](N)[C@H]1O", "target": "T6, RNA aptamer, 3'-5' linkages", "assay": "ITC", "endpoint": "Kd", "value": "10000 nM"}
{"SMILES": "Fc1ccc(Nc2nc(NCc3ncccn3)nc(Nc3ccccc3)n2)cc1", "target": "T7, RNA aptamer circularly permuted", "assay": "SPR", "endpoint": "Kd", "value": "21.2 nM"}
{"SMILES": "CN(CCO)c1ccc(/C=C(\\C#N)c2ccc(C#N)cc2)cc1", "target": "T8, RNA aptamer", "assay": "fluorescence titration, Hill fit", "conditions": "apparent", "endpoint": "Kd", "value": "1790 nM"}
{"SMILES": "Fc1ccc(Nc2nc(NCc3ncccn3)nc(Nc3ccccc3)n2)cc1", "target": "T9, RNA aptamer", "assay": "SPR", "conditions": "25 °C", "endpoint": "Kd", "value": "7.7 nM"}
{"SMILES": "COc1cc(CN(C(=O)CCl)C2CCCOC2)ccc1C (stereo not shown)", "target": "UCHL1", "assay": "covalent, intact protein LC-MS", "conditions": "12.5 µM", "endpoint": "labelling", "value": "9.93%"}
{"SMILES": "CN1C=CC(=Cc2sc3ccccc3[n+]2CC(=O)NCCOCCOCCOCCNC(=O)CCCC[C@@H]2SC[C@@H]3NC(=O)N[C@@H]32)c2ccccc21", "target": "T10, RNA aptamer", "assay": "fluorescence light-up", "conditions": "10 µM dye", "endpoint": "binding", "value": "binds"}
{"SMILES": "CC1=N/C(=C\\c2cc(F)c(O)c(F)c2)C(=O)N1C", "target": "T11, RNA aptamer, triplex fused, Baby Spinach", "assay": "fluorescence titration", "conditions": "pH 7, with: DFHBI 0.02–", "endpoint": "Kd", "value": "711 nM"}
